Measurements from different studies.
Each line is one published result; not all experiments were run side by side. ± gives the spread as reported.

For `VTYVPAQEK`, “frequency of responding donors” read 33 (AIM; peptide, CD8+ T cells from PBMC, human donors; HLA-A*30:01 restricted, unit not given; reference: positive over tested donors).
`COc1cccc2c1OCCCn1cc(nn1)CCN(Cc1ccc(C)s1)CCNC(=O)[C@H](Cc1ccccc1)NC2=O` has a remaining activity of 56% (Lassa mammarenavirus; viral replication; Huh-7; 10 µM, 72 h).
`CNC(=O)[C@@H](NC(=O)[C@H](CC(C)C)[C@H](O)C(=O)NO)C(C)(C)C` has a remaining activity of 0% (Daboia russelii venom proteases (SVMP); protease activity, inhibitor; MH population; 100 µM, together with: azocasein substrate; reference: venom alone).
With `COc1cc2cc(c1)C(=O)NCCCC(=O)N[C@H]1CN(C(=O)c3cccc(-c4ccccc4OC)c3)CC[C@@H]1OCc1cccc(c1)O2` the remaining activity was 63% (Lassa mammarenavirus; viral replication; Huh-7; 10 µM, 72 h).
With `Nc1ncnc2c([C@@H]3N[C@H](CO)[C@@H](O)[C@H]3O)c[nH]c12` the inhibition was 95.3% (Zaire ebolavirus; viral replication, inhibitor; human Macrophage; 100 µM).
`EDFLEYHDVRVVLDF` has a responding donors of 18% (human CD4 T cells; AIM; peptide).
`Cc1nc2n(n1)CC(=O)N[C@@H](C(C)C)CN(C(=O)CCC(F)(F)F)CC(=O)N[C@@H](CC(C)C)c1nc(cs1)C(=O)N[C@H]2Cc1ccccc1` gave a remaining activity of 107% (Lassa mammarenavirus; viral replication; Huh-7; 10 µM, 72 h).
`CC(C)(Nc1nc(N2CCNCC2)nc2ccccc12)c1ccccc1` gave an efficacy of 23.5% (SARS-CoV-2; cytopathic effect; USA_WA1/2020; retest, 8-point, duplicates).
For `NC(=O)CCNC(=O)c1ccccc1S`, the EC50 was 10.7 ± 2.38 µM (HIV-1; viral replication; human PBMC, group O BCF02, CCR5-tropic clinical isolate).
`Cc1noc2c(NC3CCOCC3)cc(-c3cccc(C(F)(F)F)c3)nc12` has an AC50 of 15.8 µM (SARS-CoV-2; cytopathic effect, cell-based CPE; USA_WA1/2020; round 1, 5-point dilution).
The remaining activity of `CCOc1ncccc1CNc1cc(C)nc2c(C)c(C)nn12` is reported as 60% (Lassa mammarenavirus; viral replication; Huh-7; 10 µM, 72 h).
For `LPFAMGIIAM`, “response magnitude per positive donor” read 107 (AIM; peptide, CD8+ T cells from PBMC, human donors; dose not given).
The AC50 of `COc1ccc(Nc2cc(C(=O)NCCCN3CCN(c4ccccc4F)CC3)c3ccccc3n2)c(OC)c1` is reported as 5.62 µM (SARS-CoV-2; cytopathic effect, cell-based CPE; USA_WA1/2020; round 2, 5-point dilution).
`TTDPSFLGRY` — result for “frequency of responding donors”: 100 (AIM; peptide, CD8+ T cells from PBMC, human donors; HLA-A*01:01 restricted, unit not given; reference: positive over tested donors).
With `O=C(NCCCN1CCCCC1)c1cc(Sc2ccc(Cl)cc2)nc2ccccc12` the maximal response was 98.9% (SARS-CoV-2; cytopathic effect, cell-based CPE; USA_WA1/2020; round 2, 5-point dilution).
`AVTANVNALLSTDGN` gave a responding donors of 7% (human CD4 T cells; AIM; peptide).
For `O=C(NCCN1CCCCC1)c1ccc(-c2ccc(N3CCSCC3)nc2)cc1`, the AC50 was 14.1 µM (SARS-CoV-2; cytopathic effect, cell-based CPE; USA_WA1/2020).
For `HLMSFPQSA`, “frequency of responding donors” read 17 (AIM; peptide, CD8+ T cells from PBMC, human donors; HLA-A*02:01 restricted, unit not given; reference: positive over tested donors).
`CCCN(CCC)CCCNC(=O)C1CCCN(Cc2nc(-c3ccc(Cl)cc3)oc2C)C1` (stereo not drawn) has an efficacy of 87.3% (SARS-CoV-2; cytopathic effect, cell-based CPE; USA_WA1/2020; round 2, 5-point dilution).
`KASMPTTIA` — result for “frequency of responding donors”: 100 (AIM; peptide, CD8+ T cells from PBMC, human donors; HLA-A*30:01 restricted, unit not given; reference: positive over tested donors).
With `Clc1ccc2nc(N3CCC(NCCc4cccnc4)CC3)sc2c1` the maximum response was 76.2% (SARS-CoV-2; cytopathic effect; USA_WA1/2020; retest, 8-point, duplicates).

Some of these lines once more:
`COc1cccc2c1OCCCn1cc(nn1)CCN(Cc1ccc(C)s1)CCNC(=O)[C@H](Cc1ccccc1)NC2=O` has a remaining activity of 56% (Lassa mammarenavirus; viral replication; Huh-7; 10 µM, 72 h).
With `Clc1ccc2nc(N3CCC(NCCc4cccnc4)CC3)sc2c1` the maximum response was 76.2% (SARS-CoV-2; cytopathic effect; USA_WA1/2020; retest, 8-point, duplicates).
For `NC(=O)CCNC(=O)c1ccccc1S`, the EC50 was 10.7 ± 2.38 µM (HIV-1; viral replication; human PBMC, group O BCF02, CCR5-tropic clinical isolate).
